Assay results collected from several papers.
Protocols differ between the studies behind these lines. ± marks the error that the study gave.
Sequence of UniProt P41143 (whole entry, looked up): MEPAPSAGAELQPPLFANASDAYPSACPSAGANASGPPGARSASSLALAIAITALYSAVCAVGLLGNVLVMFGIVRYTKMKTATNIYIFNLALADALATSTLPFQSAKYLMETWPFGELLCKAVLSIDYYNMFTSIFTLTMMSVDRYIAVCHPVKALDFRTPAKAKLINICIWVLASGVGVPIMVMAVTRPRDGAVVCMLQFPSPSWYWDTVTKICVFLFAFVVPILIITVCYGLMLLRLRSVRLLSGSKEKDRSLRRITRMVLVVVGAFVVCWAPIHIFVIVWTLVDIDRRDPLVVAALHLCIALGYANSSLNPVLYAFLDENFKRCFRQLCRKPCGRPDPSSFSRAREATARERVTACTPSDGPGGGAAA
Sequence of UniProt P37136 (whole entry, looked up): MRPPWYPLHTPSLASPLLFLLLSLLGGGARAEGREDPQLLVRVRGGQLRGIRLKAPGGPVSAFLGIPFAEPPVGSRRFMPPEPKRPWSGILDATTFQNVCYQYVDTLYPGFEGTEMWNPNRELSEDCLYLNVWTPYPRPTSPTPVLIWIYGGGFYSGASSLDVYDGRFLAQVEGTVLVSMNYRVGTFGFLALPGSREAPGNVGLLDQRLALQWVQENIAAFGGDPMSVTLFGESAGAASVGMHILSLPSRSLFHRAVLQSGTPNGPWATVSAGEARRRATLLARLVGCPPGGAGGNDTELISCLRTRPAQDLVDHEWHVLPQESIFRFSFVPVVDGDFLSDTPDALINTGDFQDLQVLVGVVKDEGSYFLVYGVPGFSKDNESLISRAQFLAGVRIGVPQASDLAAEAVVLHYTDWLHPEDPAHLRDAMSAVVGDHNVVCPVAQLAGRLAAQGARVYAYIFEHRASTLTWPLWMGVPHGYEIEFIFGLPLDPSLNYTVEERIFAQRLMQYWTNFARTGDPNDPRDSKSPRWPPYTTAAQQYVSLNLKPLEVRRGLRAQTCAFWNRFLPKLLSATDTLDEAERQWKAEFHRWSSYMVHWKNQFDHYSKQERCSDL

deucravacitinib — Tmax (human; oral, 20 mg, single dose): 1.25 h
maraviroc — Cmax (black CYP3A5 intermediate metabolizers, plasma; 300 mg twice daily): 754 ng/mL
phoxim-oxon — IC50 (Ache (Rattus norvegicus, UniProt P37136); inhibitor; rat, postnatal day 70, rat serum; CaE and BChE inhibitors present): 29 nM
semaglutide — participants with adverse events (item: moderate severity; human, safety analysis set; concentration not given, 32 weeks, run-in): 51%
SNC80 — EC50 (Delta-type opioid receptor, with GoA (OPRD1, Homo sapiens, UniProt P41143); GoA activation, agonist): 1.37 nM
vorinostat glucuronide — Cmax (human, plasma; oral, 400 mg vorinostat three times daily, 3 days, added: idarubicin): 4.52 µM
(+)-catechin gallate — mass in basolateral compartment (Caco-2 monolayer; transwell permeability; 1000 ng/µL, 4 h, apical application): not detected
chicoric acid — Papp basolateral to apical (IPEC-J2 monolayer; 500 µM, monolayer cultured 14 d): 0.382 ± 0.061 ×10⁻⁶ cm/s

Repeated from above:
deucravacitinib — Tmax (human; oral, 20 mg, single dose): 1.25 h
